Results from different studies.
Compare with care: the assays were run in different laboratories.

SMILES | assay | test system | setting | quantity | value
O=C(NCCNCCO)c1cn(Cc2ccccc2)c2cc(OCc3ccc(C(F)(F)F)cc3)c(Cl)cc2c1=O | shake flask | PBS | 2 h, pH 7.4 | logD | > 3
CCNC(=O)C1OC(n2cnc3c(N)ncnc32)C(O)C1O (centres unmarked) | shake flask | aqueous buffer | pH 7.4 | logD | -0.3
CC(C)(C)c1ccc(COc2cc3c(=O)c(C(=O)NCCNCCO)cn(Cc4ccccc4)c3cc2Cl)cc1 | shake flask | PBS | 2 h, pH 7.4 | logD | > 3
C=C1CCC2[C@](C)(CO)[C@H](O)CC[C@@]2(C)[C@@H]1/C=C/C1=CCOC1=O (some centres unmarked) | HPLC |  | pH 7.4 | chromatographic logD | 2.4
CCc1noc(CC)c1C(=O)O[C@H]1C(C)=C[C@]23C(=O)[C@@H](C=C(CO)[C@@H](O)[C@]12O)[C@H]1[C@@H](C[C@H]3C)C1(C)C | shake flask | aqueous buffer | 24 h, pH 3 | logD | 3.9
COC(=O)C=CCCC(NC(=O)c1ccncc1C(=O)O)C(=O)NC(C(=O)N1CC(=O)CC1C(=O)NC(C(=O)NC(C(N)=O)C1CCCCC1)C1CCCCC1)C(C)(C)C (centres unmarked) | shake flask | PBS | pH 7.4 | logD | -0.02
N#Cc1ccc(NC(=O)c2cccnc2)cc1Cl | shake flask | PBS | 4 h, pH 7.4 | logD | 1.9
COc1cc2ncnc(Oc3cccc(N[11C](=O)Nc4cc(C(C)(C)C(F)(F)F)on4)c3)c2cc1OC | shake flask | PBS | pH 7.4 | logD | 4.4

Excerpt of the above:
SMILES | assay | test system | setting | quantity | value
CCc1noc(CC)c1C(=O)O[C@H]1C(C)=C[C@]23C(=O)[C@@H](C=C(CO)[C@@H](O)[C@]12O)[C@H]1[C@@H](C[C@H]3C)C1(C)C | shake flask | aqueous buffer | 24 h, pH 3 | logD | 3.9
